# Results gathered from unrelated publications.
# Compare with care: the assays were run in different laboratories. ± gives the spread as reported.
Structure (SMILES),test,system,conditions,Cmax
CO[C@@H]1[C@H](N(C)C(=O)c2ccccc2)C[C@H]2O[C@]1(C)n1c3ccccc3c3c4c(c5c6ccccc6n2c5c31)C(=O)NC4,,"human patients, consolidation therapy, plasma","oral, 50 mg twice daily, day 21, prior micafungin, mean",1800 ng/mL
CCn1cc(C(=O)N2CCOCC2)c(=O)c2cc(NC3Cc4ccccc4C3)cnc21,,"human, fasted, plasma","oral, 900 mg single dose, tablet, arithmetic mean",5190 ng/mL
CNC(=O)n1ccc2cc(Oc3ccnc(NC(=O)c4ccc(C5CCN(CCO)CC5)cc4)c3)c(OCCOC)cc21,,"healthy human, plasma","oral, 35 mg, geometric mean, with: rabeprazole 20 mg",7.27 ng/mL
COc1ccc2[nH]c([S@+]([O-])Cc3ncc(CO)c(OC)c3C)nc2c1,,"human, dried plasma spots",5 mg racemic omeprazole,80.9 nM
CO[C@@H]1[C@H](OC(=O)N2CC(CCN3CCOCC3)C2)CC[C@]2(CO2)[C@H]1[C@@]1(C)O[C@@H]1CC=C(C)C,,"humans, plasma","subcutaneous, 0.6 mg twice weekly, fifth dose",3.61 ± 1.73 ng/mL
Cc1nc(-c2ccc(OCC(C)C)c(C#N)c2)sc1C(=O)O,,"human, plasma","oral, 40 mg once daily, with: verinurad 5 mg",1060 ng/mL
CCNCCCNC/C=C\CNCCCNCC,LC-MS/MS,"human cancer patients, plasma","intravenous infusion 60 min, 200 mg, median, cycle 1",1550 ng/mL
C[C@H](CCC(=O)O)[C@H]1CC[C@H]2[C@@H]3CC[C@@H]4C[C@H](O)CC[C@]4(C)[C@H]3C[C@H](O)[C@]12C,,"human, plasma","concentration not given, endogenous baseline diurnal",1010 ± 230 nM
N#Cc1cc(NC(=O)[C@H]2c3ccccc3C(=O)N(CC(F)(F)F)[C@@H]2c2cccnc2)ccc1F,,"human, plasma","oral, 1200 mg, median",1650 ng/mL
O=C(Nc1cnccc1Cl)N1CCN(Cc2ccc3c(c2)OC(F)(F)O3)CC1,,"human healthy young men, plasma","oral, 25 mg once daily, day 10, multiple dose mean",225 ng/mL
CC#CC(=O)N1CCC[C@H]1c1nc(-c2ccc(C(=O)Nc3ccccn3)cc2)c2c(N)nccn12,,"human, plasma","oral, 50 mg twice daily dosing, with: itraconazole 200 mg",649 ng/mL
Cc1cc(C)c(CNC(=O)c2cc(Cl)c3c(c2C)O[C@@](C)([C@H]2CC[C@H](N(C)C)CC2)O3)c(=O)[nH]1,geometric LS mean,"healthy male humans, plasma","oral, 25 mg, alone, itraconazole DDI study reference",105 ng/mL
C=CC(=O)N1CCC(Oc2cc3c(Nc4ccc(Cl)c(Cl)c4F)ncnc3cc2OC)CC1,,"human, fasted, plasma","oral, 16 mg, geometric mean",82.2 ng/mL
Cc1cn(C(=O)c2c(-c3c(Cl)cc(Cl)cc3Cl)noc2C(C)(C)F)c2cccc(/C=C/C(=O)O)c12,,human patients,"1400 mg bid, cycle 8 day 1",46300 ng/mL
CCOc1c([C@H](C)n2nc(C)c3c(N)ncnc32)cc(Cl)c(F)c1[C@@H]1CNC(=O)C1,,"human patients, plasma","oral, 30 mg, day 1",2260 nM
Nc1ccn([C@@H]2O[C@H](CO)[C@@H](O)C2(F)F)c(=O)n1,,"human, plasma","intravenous, 800 mg/m^2, mean, before paricalcitol",18000 ng/mL
Cc1cc(Nc2ccc(S(F)(F)(F)(F)F)cc2)n2nc(C(C)(F)F)nc2n1,LC-MS/MS,"human vivax malaria patients, plasma","oral, 400 mg, mean",7880 ng/mL
C[C@H](O)c1cc(C(=O)N[C@@H](C)Cn2ccc(-c3ccc(C#N)c(Cl)c3)n2)n[nH]1,,"human, fasted, plasma","oral, 300 mg darolutamide tablet, geometric mean",561 ng/mL
N#CCC1CCN(c2nc(Nc3ccc(N4CCC(O)CC4)cc3)c3c(=O)[nH]ncc3n2)CC1,,"human, plasma","oral, 40 mg once daily, day 15",171 ng/mL
COc1ccc([C@@H](O)c2cc(-c3ncnc4cc(N5CCOCC5)ccc34)c(F)cc2Cl)nn1,,"human, plasma","oral, 300 mg twice daily, single dose, geometric mean",1710 ng/mL

# For quick reference, copied from above:
Structure (SMILES),test,system,conditions,Cmax
CCNCCCNC/C=C\CNCCCNCC,LC-MS/MS,"human cancer patients, plasma","intravenous infusion 60 min, 200 mg, median, cycle 1",1550 ng/mL
Cc1cc(Nc2ccc(S(F)(F)(F)(F)F)cc2)n2nc(C(C)(F)F)nc2n1,LC-MS/MS,"human vivax malaria patients, plasma","oral, 400 mg, mean",7880 ng/mL
